Measurements collected from several papers.
Numbered parts are unrelated; each lists some results of a single study.

Study 1 — method: aptamer microarray, sandwich; form: DNA with 2'F-ANA; matrix: in vitro; concentration: 200 nM; together with: Cy3 exosite-II aptamer, 400 nM; direction: higher = stronger binding; oligonucleotide: GGTTGGTGTGGTTGG
Target: Prothrombin, mature alpha-thrombin (F2, Homo sapiens, UniProt P00734)
Notes: whole 15-mer aptamer, many near background
`2'F-ANA at 1 3 4 6 7 12 13 14`: “mean fluorescence intensity” 87.3 a.u.
For `2'F-ANA at 1 4 5 6 7 10 11 12 14 15`, “mean fluorescence intensity” read 50.7 a.u.
For `2'F-ANA at 1 2 4 5 11 13`, “mean fluorescence intensity” read 70.1 a.u.
`2'F-ANA at 1 2 5 8 10 13 15`: “mean fluorescence intensity” 54.7 a.u.
For `2'F-ANA at 1 2 4 5 6 7 8 9 10 12 13 15`, “mean fluorescence intensity” read 49.1 a.u.
For `2'F-ANA at 1 3 5 7 9 10 13 14 15`, “mean fluorescence intensity” read 75.5 a.u.
`2'F-ANA at 1 2 8 9 10 14 15`: “mean fluorescence intensity” 49.5 a.u.
`2'F-ANA at 1 3 4 6 8 15`: “mean fluorescence intensity” 251 a.u.
Under “mean fluorescence intensity”, `2'F-ANA at 2 3 5 6 10 12 15` is recorded as 57.2 a.u.
`2'F-ANA at 1 5 7 11 13 14`: “mean fluorescence intensity” 44.7 a.u.
For `2'F-ANA at 1 2 4 6 7 11 12 14`, “mean fluorescence intensity” read 53.9 a.u.
Under “mean fluorescence intensity”, `2'F-ANA at 1 2 3 6 8 12 13 14` is recorded as 88.6 a.u.
`2'F-ANA at 3 4 6 7 8 9 10 11 14`: “mean fluorescence intensity” 169 a.u.
For `2'F-ANA at 1 5 6 7 9 10 13`, “mean fluorescence intensity” read 48.4 a.u.
`2'F-ANA at 1 3 6 7 13 14` — result for “mean fluorescence intensity”: 80.9 a.u.
`2'F-ANA at 1 3 5 6 7 8 11 13 14 15`: “mean fluorescence intensity” 49.3 a.u.
`2'F-ANA at 4 5 6 7 8 9 12 13` — result for “mean fluorescence intensity”: 89.6 a.u.
Under “mean fluorescence intensity”, `2'F-ANA at 1 2 5 11 12 15` is recorded as 81.8 a.u.
`2'F-ANA at 2 3 5 6 7 8 10 11 12 13 15` — result for “mean fluorescence intensity”: 56.1 a.u.

Study 2 — method: RNA Bind-n-Seq; form: RNA; matrix: in vitro; concentration: not given; relative to: input RNA pool; direction: higher = stronger binding
Target: RING finger protein unkempt homolog, zinc fingers 1-6, GST-SBP tag (UNK, Homo sapiens, UniProt Q9C0B0, residues 30-357)
Notes: RNA with constant flanks, human-mouse chimeric sites, ends assumed
Construct (chain): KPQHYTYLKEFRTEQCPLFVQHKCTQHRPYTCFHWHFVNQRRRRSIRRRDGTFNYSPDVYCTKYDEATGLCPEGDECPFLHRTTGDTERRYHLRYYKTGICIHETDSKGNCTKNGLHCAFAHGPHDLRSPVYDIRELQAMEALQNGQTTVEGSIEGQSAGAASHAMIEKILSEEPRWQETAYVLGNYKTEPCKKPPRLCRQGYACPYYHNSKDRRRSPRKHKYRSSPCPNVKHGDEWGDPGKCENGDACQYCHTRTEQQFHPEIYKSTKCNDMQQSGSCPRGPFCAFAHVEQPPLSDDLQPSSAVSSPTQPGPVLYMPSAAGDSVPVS
`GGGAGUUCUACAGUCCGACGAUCGCUCUUGGGAAUGUAAUCAGCGCCUUGGGAGACAAGAGCAAGAGAGCCACACAUGUCCCUUACAGAGACUCUAAGCUGACAAGACUCUUGCAGGAUUCCCUUGGGGGUAACAGCCAAACCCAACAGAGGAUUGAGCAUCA` has a bound/input enrichment of 0.102 ratio.
The bound/input enrichment of `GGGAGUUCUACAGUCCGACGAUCGCCACCAGAUCCCAGAAACAUGACCCUUGCUGCCUACAAAGAGAAGAUGAAGGAGCUCCCACUAGUGUCCUUGUUCUGCUCCUGCUUCCUGGCCGAUCCCCUGAAUAAAUCAUCCUACAACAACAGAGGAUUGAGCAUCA` is reported as 1.08 ratio.
With `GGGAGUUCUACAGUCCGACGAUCCGCGUCCUCUCGCUGCUGCGGAGCCCGAGCUGGGAACCAUUCCGGGACUGGUACCCUGCACACAGCCGCCUCUUCGAUCAAGCUUUCGGGGUGCCCCGGUUGCCCGAGGAGUGGUCGCAGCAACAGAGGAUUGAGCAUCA` the bound/input enrichment was 0.0939 ratio.
`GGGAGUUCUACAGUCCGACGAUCCUGGGCUUCUCUUUUCUUUCUUUCCUUUAGGAAAAGCCUAAAGAUUAGGUUGUAAGAAAAAUAGAAGCCAUGUUUCGAAGACCUGUGUUACAGGUAUUUCGUCAGUUUGUAAGACAUGAGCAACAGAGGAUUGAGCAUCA` gave a bound/input enrichment of 0.272 ratio.
With `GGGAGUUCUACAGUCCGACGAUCAUAAAGGCCAUGUUGAGUGGUCCAGGUCAGUUUGCUGAGAACGAAACCAACGAGGUCAAUUUUAGAGAGAUCCCCUCACAUGUGCUAUCAAAAGUGUGCAUGUAUUUUACCUACAAGGUCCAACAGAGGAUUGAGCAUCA` the bound/input enrichment was 0.133 ratio.
`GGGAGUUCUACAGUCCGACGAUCCUGGCCUGGCCCUCCCCAGGGGCCUCCUUUCGUAUAGUCACUGCUUCUGCAUCAGAUACUUUCAGCUGCAACUCCCUGCAGGGUGGGGCACCCAUUUGAGGCAGGGUGUUUUGGUACCCUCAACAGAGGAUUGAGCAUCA` gave a bound/input enrichment of 0.225 ratio.

Study 3 — method: RNA Bind-n-Seq; form: RNA; matrix: in vitro; concentration: 365 nM; relative to: no-protein control; direction: higher = stronger binding
Target: RNA binding protein fox-1 homolog 2, RRM domain, GST-SBP tag (RBFOX2, Homo sapiens, UniProt O43251-10, residues 100-194)
Notes: natural RNA segment, single round, ends assumed
Target sequence (chain): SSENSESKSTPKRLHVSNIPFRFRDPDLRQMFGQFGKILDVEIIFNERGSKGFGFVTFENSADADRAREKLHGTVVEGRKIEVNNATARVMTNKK
`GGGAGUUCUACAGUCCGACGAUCAGCACACACGCCUCAUUCUCUGCCCUCACCCACUGCUCACCUAGAGCAUCGCUGAGCGUUAGACAAAGUGUUACACAGAAUGAUUAAAACUUUCAGACUUCUACCUAUGCUGGAAUUCUCGGGUGCCAA` — result for “RBNS enrichment (R)”: 0.656.
`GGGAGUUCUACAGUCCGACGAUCGGUGGGCCUUGGAGGAGGGCGGGAAAGGAGCGACCAACAUGGCGGUCCUCCACCCCUCAGCGACACCCACCGCCCGAGAAACUACAGACAAUGGCCACAAGUUUGGCGUCUGGAAUUCUCGGGUGCCAA`: “RBNS enrichment (R)” 0.21.
`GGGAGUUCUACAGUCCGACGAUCUGGUUCCAUCCAUCCCCACAACAGCCUGCCAAUCGAAGCCCGUCCCUGCAUCCAGGAUGGUACCAGCUCCCGCCCCUCGCCCCCCACCUCCACAGGUGCCUUAAAGGGCCUGGAAUUCUCGGGUGCCAA` — result for “RBNS enrichment (R)”: 7.1.
For `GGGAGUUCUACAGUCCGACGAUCAAGCAAACAAAUUUAAGUUUUCUUGUAUUGAAAAUAACCUAUGAUUGUAUGUUUUGCAUUCCUAGAAGUAGGUUAACUGUGUUUUUAAAUUGUUAUAACUUCACACCUUUUGGAAUUCUCGGGUGCCAA`, “RBNS enrichment (R)” read 0.607.
Under “RBNS enrichment (R)”, `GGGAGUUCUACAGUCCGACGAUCGGUUUCUGCUUCCAUAUAUUUCCCAGUCAUUUUAAUUAGAGAAGAUACUCUAUGGUAGAACUAAGGCCUUUCCUUUCUUGGCCAAAGUCUUUACCCUAUUUAACCCUUUGUGGAAUUCUCGGGUGCCAA` is recorded as 0.852.
`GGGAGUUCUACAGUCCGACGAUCUUGUGUUAAAUAGUACUAGCUAGAAAUACAAAUUUCUGGUUAUCAUUUCUCUUCCCUGUGGCACUUGACAUUUUAAUUGUCUUAAAGUUUUUGAAGUACAUCUUCUGGCCUGGAAUUCUCGGGUGCCAA` — result for “RBNS enrichment (R)”: 0.364.
`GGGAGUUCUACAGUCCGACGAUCCAUCGGGAGACCCUCGGGGGCUUCUGUGGCCUCUGUGCCCGAUGACCUGCGUGGCUUCAGACAAGGCCCCAGCGUUACUGGGCUCAGCUUGUUGUUCUGUGUGGAGCGUGUGGAAUUCUCGGGUGCCAA`: “RBNS enrichment (R)” 0.653.
For `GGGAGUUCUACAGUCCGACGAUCUGUUGAAAAAUCUGUGAAGAACAUAGUAAGUUAAGGUUUUCCAACUUGGAAAAAUGUACAUGAUGUGAAACUGGGGUGCUAUGUUAAAAAUAAAUGUAUGAUAACUCAUGUGGAAUUCUCGGGUGCCAA`, “RBNS enrichment (R)” read 0.331.

Study 4 — method: competition protein-binding microarray; form: double-stranded DNA, one strand shown; matrix: in vitro; concentration: 2 µM; together with: Cbf1 competitor, 0.05 µM; direction: higher = stronger binding
Target: Phosphate system positive regulatory protein PHO4, full length, GST-tagged (PHO4, Saccharomyces cerevisiae, UniProt P07270, residues 1-312)
Notes: whole 60-bp probe, lowest competitor level
Residues (chain): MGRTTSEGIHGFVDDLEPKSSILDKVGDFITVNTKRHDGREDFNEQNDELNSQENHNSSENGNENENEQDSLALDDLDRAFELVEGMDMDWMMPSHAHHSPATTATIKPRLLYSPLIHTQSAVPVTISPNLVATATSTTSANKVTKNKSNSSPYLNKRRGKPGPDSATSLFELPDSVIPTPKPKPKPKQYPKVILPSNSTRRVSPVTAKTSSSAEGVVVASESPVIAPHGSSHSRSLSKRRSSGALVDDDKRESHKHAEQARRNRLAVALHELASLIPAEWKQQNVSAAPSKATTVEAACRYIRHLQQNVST
With `CCCTTGCATCGCTGCCGTGTGGCGCGACCCACTGCGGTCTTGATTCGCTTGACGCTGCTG` the fluorescence intensity was 5310 a.u.
With `AGATTTATGGCTTTCCATGTGGTTAAAGAAAAATTGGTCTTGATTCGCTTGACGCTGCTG` the fluorescence intensity was 7920 a.u.
`GGTGCCCAGAGTAAAGGCGTGATGGTGCAAAGACTCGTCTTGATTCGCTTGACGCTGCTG` gave a fluorescence intensity of 5950 a.u.
The fluorescence intensity of `GCTCAAGCGTTCGGACGCGTGAAATGCTTCAACTGAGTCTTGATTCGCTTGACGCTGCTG` is reported as 4020 a.u.
`GCATAGTCATATCACCACGTGGAACATCATGAAAAAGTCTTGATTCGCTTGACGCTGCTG` gave a fluorescence intensity of 20600 a.u.
The fluorescence intensity of `CCAAACCGAGTTTGTCACGGCATATATACTCTGGCGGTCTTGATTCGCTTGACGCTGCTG` is reported as 3710 a.u.
`TCCTTATCTATAGGACACGCTGTTATTTTAGTTCAAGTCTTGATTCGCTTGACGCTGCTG` gave a fluorescence intensity of 7360 a.u.
`CGTCCTAGTGATTTTCACGTGGTGTCCATGAGGAAGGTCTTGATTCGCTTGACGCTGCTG` gave a fluorescence intensity of 14400 a.u.
`TGTTGAAGACCTCACTTCGTGACGGTTCGGCTTCGAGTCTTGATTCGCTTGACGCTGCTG` gave a fluorescence intensity of 4150 a.u.
For `CGGGGTTAAGTTTTTCACGTGTCTTGCTTGCAGCAGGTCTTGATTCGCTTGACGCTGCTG`, the fluorescence intensity was 12700 a.u.
The fluorescence intensity of `CAAATGTTGCCTTTGCACGTGAAGGTGCATTTGTATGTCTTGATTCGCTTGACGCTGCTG` is reported as 13900 a.u.
`ATAATCTTCTCAGGACACGTAATCTTCTGATCCAGAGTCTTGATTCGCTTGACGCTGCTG` gave a fluorescence intensity of 4780 a.u.
`AAATTACTAAGTTGCTAAGTGGGTGACGCCGTATGAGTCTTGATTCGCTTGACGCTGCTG` has a fluorescence intensity of 3750 a.u.
For `AAATTATAATTCGCTCTCATGATAACCACATCTGTCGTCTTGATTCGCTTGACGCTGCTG`, the fluorescence intensity was 3910 a.u.
With `AAGGGATGGTACTATCACATGTCTCTTGTATCCGCAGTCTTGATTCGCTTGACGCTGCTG` the fluorescence intensity was 9180 a.u.
With `TTGTCTGTGCATTGGCATGCGCAAGCATTCGATGAAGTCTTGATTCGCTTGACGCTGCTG` the fluorescence intensity was 7170 a.u.
`GTCTTGTCTCATTGTCGTGTGGGTGTCCCCACTTCAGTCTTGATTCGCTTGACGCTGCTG` gave a fluorescence intensity of 6310 a.u.
`CTGAACAATATGTACATCGTGTCGGTAGAGCTGGTAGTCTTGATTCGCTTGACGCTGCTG` has a fluorescence intensity of 8940 a.u.
For `AATTCTGGAATACTCCACGTGACTCGTATCCGAAAAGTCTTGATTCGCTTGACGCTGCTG`, the fluorescence intensity was 12200 a.u.

A few entries again (study 4):
With `CCCTTGCATCGCTGCCGTGTGGCGCGACCCACTGCGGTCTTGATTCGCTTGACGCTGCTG` the fluorescence intensity was 5310 a.u.
The fluorescence intensity of `CAAATGTTGCCTTTGCACGTGAAGGTGCATTTGTATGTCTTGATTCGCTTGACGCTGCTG` is reported as 13900 a.u.
`CTGAACAATATGTACATCGTGTCGGTAGAGCTGGTAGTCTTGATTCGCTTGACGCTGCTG` has a fluorescence intensity of 8940 a.u.
`AAATTACTAAGTTGCTAAGTGGGTGACGCCGTATGAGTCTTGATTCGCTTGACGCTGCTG` has a fluorescence intensity of 3750 a.u.
`GGTGCCCAGAGTAAAGGCGTGATGGTGCAAAGACTCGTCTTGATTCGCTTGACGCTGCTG` gave a fluorescence intensity of 5950 a.u.
